Measurements of several laboratories.
Every numbered part comes from another study and shows a few of its results, in no order.

Block 1
Target: Prothrombin, mature alpha-thrombin (F2, Homo sapiens, UniProt P00734)
Technique: aptamer microarray, sandwich
Form: DNA with 2'F-ANA
Sample: in vitro
Tested at: 200 nM
Setting: whole 15-mer aptamer, many near background
Added: Cy3 exosite-II aptamer, 400 nM
Reading: higher = stronger binding
Strand: GGTTGGTGTGGTTGG
| Modification | mean fluorescence intensity [a.u.] |
| --- | --- |
| 2'F-ANA at 6 8 10 11 12 13 14 | 96.7 |
| 2'F-ANA at 2 3 4 6 7 8 10 15 | 206 |
| 2'F-ANA at 1 2 4 6 7 9 12 13 14 | 57.4 |
| 2'F-ANA at 2 5 7 8 12 15 | 225 |
| 2'F-ANA at 1 2 5 9 12 13 14 15 | 49.2 |
| 2'F-ANA at 2 4 7 8 10 11 12 13 14 15 | 63.9 |
| 2'F-ANA at 1 2 4 6 7 8 11 | 119 |
| 2'F-ANA at 3 6 9 10 13 14 15 | 463 |
| 2'F-ANA at 1 4 7 11 12 14 | 57.2 |
| 2'F-ANA at 1 2 4 7 9 10 | 50 |
| 2'F-ANA at 4 5 7 8 9 10 14 15 | 46.8 |
| 2'F-ANA at 4 6 9 15 | 250 |
| 2'F-ANA at 2 3 9 11 13 | 707 |
| 2'F-ANA at 1 2 3 5 6 8 14 | 46.6 |
| 2'F-ANA at 2 3 5 6 7 9 12 13 14 | 51.7 |
| 2'F-ANA at 1 2 3 5 6 10 11 14 | 62.6 |
| 2'F-ANA at 2 3 5 7 8 11 13 14 15 | 57 |
| 2'F-ANA at 2 5 6 7 10 13 14 | 58.5 |
| 2'F-ANA at 2 4 7 11 12 13 15 | 332 |
| 2'F-ANA at 2 3 5 6 7 11 12 13 14 | 56.5 |
| 2'F-ANA at 5 8 12 13 14 15 | 48.3 |
| 2'F-ANA at 1 2 4 9 10 11 12 15 | 57 |
| 2'F-ANA at 1 3 4 6 7 8 10 11 | 66 |
| 2'F-ANA at 2 3 5 8 10 11 | 63.7 |

Block 2
Target: Histone acetyltransferase KAT6A, both winged helices, GST fusion (KAT6A, Homo sapiens, UniProt Q92794, residues 1-181)
Technique: protein binding microarray
Form: double-stranded DNA, one strand shown
Sample: in vitro
Tested at: not given
Setting: 8-mer, flanks averaged, mean of 2 arrays, mostly near background
Baseline: not given
Reading: higher = stronger binding
Residues (chain): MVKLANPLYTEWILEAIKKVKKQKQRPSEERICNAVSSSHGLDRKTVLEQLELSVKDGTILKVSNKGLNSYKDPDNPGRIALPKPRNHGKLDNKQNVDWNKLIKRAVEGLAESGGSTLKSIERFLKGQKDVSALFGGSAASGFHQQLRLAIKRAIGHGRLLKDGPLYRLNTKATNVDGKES
| Strand | E-score |
| --- | --- |
| CTTGGCCA | -0.23 |
| CTGAGATC | -0.0198 |
| AAAACAGA | 0.0539 |
| AATTCGCC | 0.0524 |
| GCACTGAC | 0.0385 |
| AATCTCTC | -0.118 |
| ACCGGTAT | 0.158 |
| CTCTATGC | 0.0447 |
| GCCGTGCC | 0.244 |
| AACAAGTT | -0.144 |
| CAGAAAGG | -0.0616 |
| TACTCAGA | -0.0453 |
| GCAGGATA | -0.146 |
| CTTCATCC | -0.138 |
| ACTAGTGC | 0.0491 |
| ATCCGTCC | 0.176 |
| AAAGACAC | -0.00411 |
| ATGGTACA | -0.189 |
| ATCAATAA | -0.0888 |
| ATGAGCCG | 0.0985 |
| ACCTGCGA | -0.0223 |
| CGCCCCGC | 0.267 |
| CATGGGTC | -0.227 |
| AACTCACA | -0.166 |
| ATTAGTAC | -0.0654 |

Block 3
Target: Fragile X messenger ribonucleoprotein 1, C-terminal low-complexity region (Fmr1, Mus musculus, UniProt P35922)
Technique: RNA Bind-n-Seq
Form: RNA
Sample: in vitro
Tested at: 200 nM
Setting: whole 134-nt RNA, ends assumed
Added: 150 mM KCl
Baseline: input library
Reading: higher = stronger binding
All sequences stand within: GGGAGUUCUACAGUCCGACGAUC … UGGAAUUCUCGGGUGUCAAGG
| Strand | log2 enrichment |
| --- | --- |
| UCCUGUGCUACACAUCGUAUGUACCGAAUCAAACCCCCCCAAACCCCCCCAAACCCAAAAAAGUAUUAUGUUACGCCGUUCGGAUCUGCA | 0.243 |
| AAGUCCUGUGCUACACAUCGUAUGUACCGAAUCGGGGAAAGGGGAAAGGGGAAAGGGAAAGUAUUAUGUUACGCCGUUCGGAUCUGCACU | 0.213 |
| CACAGACAUCACGCACCCACACAGACACAGAGGGAAGGGGUUGGGAUGGGGACAGGGUGCACAGCAGGGCGGGGUAGGACCCCAGCCCCU | 1.36 |
| UCAAGUCCUGUGCUACACAUCGUAUGUACCGAAUCGGGAAAGGAAAGGGAAAGGGAAAGUAUUAUGUUACGCCGUUCGGAUCUGCACUUC | -0.35 |
| AAGUCCUGUGCUACACAUCGUAUGUACCGAAUCGGGGAGGGGAAAAAGGGGAGGGGAAAGUAUUAUGUUACGCCGUUCGGAUCUGCACUU | 0.915 |
| GUCCUGUGCUACACAUCGUAUGUACCGAAUCAAACCCAAAUUUUUUUAAACCCCCAAAAAAGUAUUAUGUUACGCCGUUCGGAUCUGCAC | -0.0925 |
| AGUCCUGUGCUACACAUCGUAUGUACCGAAUCGGGAAAAAAAGGGAGGGUUUUUGGGAAAGUAUUAUGUUACGCCGUUCGGAUCUGCACU | 0.424 |
| UGAUGAUAGUAGCAGAGAAGAUGAACAUACACAUACUAACAGUGUCACGAACUCCAGUAGUAUUGUGGACCUGCCCGUUCACCAACUCUC | 0.316 |
| GCAGGAAUUAAAAACAAAUGGAAAUGCUUCGGAUAGUGGCAGGGGUGGGGGUUGCUAAGGAAAGGGUGGGAUGGGAGUGGGUAAAGAGUU | 0.539 |
| CCUGUGCUACACAUCGUAUGUACCGAAUCGGGUUUUUUUGGGUUUUUUUGGUUUUUUUGGGAAAGUAUUAUGUUACGCCGUUCGGAUCUG | -0.773 |
| UGGGAGGUGGAUUUUGUUUAUUUUUUUAGCUCAUUUCCAGGGGUGGGAAUUUUUUUUUAAUAUGUGUCAUGAAUAAAGUUGUUUUUGAAA | -0.304 |
| GCAGGAAGUAAAAACAAAUGGAAAUGCUUCGGAUAGUGGCAGGGGUGGGGGUUGCUAAGGACAGGGUGGGAUGGGAGUGGGUAAAGAGUU | 0.175 |
| GCAGGAAGUAAAAACAAAUGGAAAUGCUUCGGGUAGUGGCAGGGGUGGGGGUUGCUAAGGAAAGGGUGGGAUGGGAGUGGGUAAAGAGUU | 0.271 |
| AGUCCUGUGCUACACAUCGUAUGUACCGAAUCGGGGAGGGGUUUGGGGUUUUUGGGGAAAGUAUUAUGUUACGCCGUUCGGAUCUGCACU | 0.834 |

Block 4
Target: RNA binding protein fox-1 homolog 2, RRM domain, GST-SBP tag (RBFOX2, Homo sapiens, UniProt O43251-10, residues 100-194)
Technique: RNA Bind-n-Seq
Form: RNA
Sample: in vitro
Tested at: 365 nM
Setting: natural RNA segment, single round, ends assumed
Baseline: no-protein control
Reading: higher = stronger binding
All sequences stand within: GGGAGUUCUACAGUCCGACGAUC … UGGAAUUCUCGGGUGCCAA
Residues (chain): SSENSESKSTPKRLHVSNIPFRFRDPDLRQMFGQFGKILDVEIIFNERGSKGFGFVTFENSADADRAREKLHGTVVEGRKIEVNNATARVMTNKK
| Strand | RBNS enrichment (R) |
| --- | --- |
| UAAUCAGAAGCAUUUGAUAAUAAUCUGCCUUGCAGCCACGCCUUCAAACUUCAUUGUUGCUUUCUCUUCUGGCCUUGUAAUGUUUGAGUCAAGCCCUGCUUCUCAGCUAG | 0.436 |
| UCCUGCUUUGAAAACUCACGCUGGCUGCUUCACUGCCCUGAGAUUCAGUGAGACACGCAGUUUGUGUUCAGUUUUUACAUCCUCUGAUUGUUUAUCUUGUGCAGAUAAAC | 0.263 |
| AUCUUUCUGCUGACAACUUAGGUUGUAUGAGUUAUGCUUAAAAGCUUUAAAUCUGAUGUUUCCUGUACCUGCCACACUAUGUUAGAAUGUGUCCUUCAAACAUAUCCUCC | 0.296 |
| UUGACUUGGAAAGACUUUCAUCUCCUUGGAACCAAGACUUCCUGAGUCCCCCUCACCCUGGCCCUGUUCCACCAUGGUUAUCUGGGUAUUGGGGAAUGGAAACUUUGGGG | 0.217 |
| CUGUUGCGGUUUCAUUCUCUGUCAUCAGGGCUAUUUUCUACAGACCUUGAGCCUCAAAACCUGUUCUACCAUUGAAGGAGAGGAAGAUUGAAGUUGGCUUACAUUUCUAC | 0.312 |
| GCGGGAGGGAGGUGUUGCCGUCACUGUACUAAGUCGAUGUUGGGAAAUGUUUUAACAUCUGGAGCCUUUGUGGGUGGAAAUCUGUCUCCAAUUACAACUCUGCACUGGAU | 0.956 |
| GGGCUGGGCAGGCUGGGUGCCGGGCCCACCUUGGUGCUGCCGCGCUGCUCUUAGGUUUGUGUGUGUUUCUCUCCUGGCCAUCCACCCCGGCUGUGGGUCCACCCCAGCCG | 0.308 |
| UGACAUAGCCUUUGUGCAAAAAAAAAAAAAAAAAAAAAGAAAAAGAAAAAAAGAAAAAUAUAUUGUCCAUACUGUAAAUAAGUGUAUGCUUAUUUAUUUGGGGGGAAAAC | 1.5 |
| AUGGGCCACACACAGCUAGAAGUCCUCUCCCAGCUAGAAGUCCUGUCCCCACUCUCCUGGCCUGACAAGAUGAGCUCUCCUGGGACCUUGCUCUAGGGCACUCUGCCUCU | 0.489 |
| UAGGAGAGAAUAAAGGGCUAUAUAAUAAUAAAUCCAGAUUUCCGGAUAAGAAUAUUGCCUGGUUAAAAUUCUGCAUUGCUUAAAGACACCCAUGUUUAAGAUUUUUCAUC | 1.45 |
| GUCUUGGUGUAAUUUGAAGAUUGCCCCAUCUAGACUAGCAAUCUCUUCAUUAUUCUCUGCUAUAUAUAAAACGGUGCUGUGAGGGAGGGGAAAAGCAUUUUUCAAUAUAU | 0.741 |
| UUAAGAAUGUAAAGUGAUUCUGUAUCAAUGUAAAUAAGAUGAUCUACUACAAAAGAUAUUUAAAAUCAAAAUUGUGGUCAUUUCUUCUUUGAGAGUUCAAAGUAGCUUCU | 0.493 |

Repeated from above (block 4):
| Strand | RBNS enrichment (R) |
| --- | --- |
| UCCUGCUUUGAAAACUCACGCUGGCUGCUUCACUGCCCUGAGAUUCAGUGAGACACGCAGUUUGUGUUCAGUUUUUACAUCCUCUGAUUGUUUAUCUUGUGCAGAUAAAC | 0.263 |
| AUCUUUCUGCUGACAACUUAGGUUGUAUGAGUUAUGCUUAAAAGCUUUAAAUCUGAUGUUUCCUGUACCUGCCACACUAUGUUAGAAUGUGUCCUUCAAACAUAUCCUCC | 0.296 |
| UUGACUUGGAAAGACUUUCAUCUCCUUGGAACCAAGACUUCCUGAGUCCCCCUCACCCUGGCCCUGUUCCACCAUGGUUAUCUGGGUAUUGGGGAAUGGAAACUUUGGGG | 0.217 |
| CUGUUGCGGUUUCAUUCUCUGUCAUCAGGGCUAUUUUCUACAGACCUUGAGCCUCAAAACCUGUUCUACCAUUGAAGGAGAGGAAGAUUGAAGUUGGCUUACAUUUCUAC | 0.312 |
| GCGGGAGGGAGGUGUUGCCGUCACUGUACUAAGUCGAUGUUGGGAAAUGUUUUAACAUCUGGAGCCUUUGUGGGUGGAAAUCUGUCUCCAAUUACAACUCUGCACUGGAU | 0.956 |
